# Measured values from different studies.
# Every numbered part comes from another study and shows a few of its results, in no order.
# UniProt Q15831, sequence (whole entry, looked up): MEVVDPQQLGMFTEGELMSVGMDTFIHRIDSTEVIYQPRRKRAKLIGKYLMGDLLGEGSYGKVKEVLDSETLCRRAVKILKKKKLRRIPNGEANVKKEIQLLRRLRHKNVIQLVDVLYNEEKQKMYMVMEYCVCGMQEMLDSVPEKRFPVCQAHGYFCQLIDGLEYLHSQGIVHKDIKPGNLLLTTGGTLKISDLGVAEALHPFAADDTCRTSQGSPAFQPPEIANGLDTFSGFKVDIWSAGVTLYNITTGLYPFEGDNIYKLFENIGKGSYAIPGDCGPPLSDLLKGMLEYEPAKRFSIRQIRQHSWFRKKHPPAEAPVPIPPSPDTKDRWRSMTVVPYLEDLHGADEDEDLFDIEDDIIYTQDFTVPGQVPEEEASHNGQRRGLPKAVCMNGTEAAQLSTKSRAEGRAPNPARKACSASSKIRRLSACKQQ
# UniProt Q9H093, sequence (whole entry, looked up): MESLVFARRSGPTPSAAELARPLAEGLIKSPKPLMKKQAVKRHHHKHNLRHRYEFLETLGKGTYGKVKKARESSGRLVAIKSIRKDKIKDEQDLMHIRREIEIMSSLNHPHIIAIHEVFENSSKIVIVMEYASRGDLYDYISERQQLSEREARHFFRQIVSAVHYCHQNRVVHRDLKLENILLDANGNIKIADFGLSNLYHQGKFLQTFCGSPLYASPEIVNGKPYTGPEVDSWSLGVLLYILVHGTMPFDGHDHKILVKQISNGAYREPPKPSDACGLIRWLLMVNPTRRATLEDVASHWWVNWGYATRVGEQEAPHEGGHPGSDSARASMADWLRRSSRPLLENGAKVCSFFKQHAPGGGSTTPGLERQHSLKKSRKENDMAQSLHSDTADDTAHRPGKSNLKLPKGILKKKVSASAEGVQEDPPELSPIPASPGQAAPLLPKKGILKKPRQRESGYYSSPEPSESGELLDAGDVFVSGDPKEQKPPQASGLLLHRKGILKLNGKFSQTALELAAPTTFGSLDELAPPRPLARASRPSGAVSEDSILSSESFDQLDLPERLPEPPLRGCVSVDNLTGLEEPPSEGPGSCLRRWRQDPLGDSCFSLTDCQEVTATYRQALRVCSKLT
# UniProt P35916, sequence (whole entry, looked up): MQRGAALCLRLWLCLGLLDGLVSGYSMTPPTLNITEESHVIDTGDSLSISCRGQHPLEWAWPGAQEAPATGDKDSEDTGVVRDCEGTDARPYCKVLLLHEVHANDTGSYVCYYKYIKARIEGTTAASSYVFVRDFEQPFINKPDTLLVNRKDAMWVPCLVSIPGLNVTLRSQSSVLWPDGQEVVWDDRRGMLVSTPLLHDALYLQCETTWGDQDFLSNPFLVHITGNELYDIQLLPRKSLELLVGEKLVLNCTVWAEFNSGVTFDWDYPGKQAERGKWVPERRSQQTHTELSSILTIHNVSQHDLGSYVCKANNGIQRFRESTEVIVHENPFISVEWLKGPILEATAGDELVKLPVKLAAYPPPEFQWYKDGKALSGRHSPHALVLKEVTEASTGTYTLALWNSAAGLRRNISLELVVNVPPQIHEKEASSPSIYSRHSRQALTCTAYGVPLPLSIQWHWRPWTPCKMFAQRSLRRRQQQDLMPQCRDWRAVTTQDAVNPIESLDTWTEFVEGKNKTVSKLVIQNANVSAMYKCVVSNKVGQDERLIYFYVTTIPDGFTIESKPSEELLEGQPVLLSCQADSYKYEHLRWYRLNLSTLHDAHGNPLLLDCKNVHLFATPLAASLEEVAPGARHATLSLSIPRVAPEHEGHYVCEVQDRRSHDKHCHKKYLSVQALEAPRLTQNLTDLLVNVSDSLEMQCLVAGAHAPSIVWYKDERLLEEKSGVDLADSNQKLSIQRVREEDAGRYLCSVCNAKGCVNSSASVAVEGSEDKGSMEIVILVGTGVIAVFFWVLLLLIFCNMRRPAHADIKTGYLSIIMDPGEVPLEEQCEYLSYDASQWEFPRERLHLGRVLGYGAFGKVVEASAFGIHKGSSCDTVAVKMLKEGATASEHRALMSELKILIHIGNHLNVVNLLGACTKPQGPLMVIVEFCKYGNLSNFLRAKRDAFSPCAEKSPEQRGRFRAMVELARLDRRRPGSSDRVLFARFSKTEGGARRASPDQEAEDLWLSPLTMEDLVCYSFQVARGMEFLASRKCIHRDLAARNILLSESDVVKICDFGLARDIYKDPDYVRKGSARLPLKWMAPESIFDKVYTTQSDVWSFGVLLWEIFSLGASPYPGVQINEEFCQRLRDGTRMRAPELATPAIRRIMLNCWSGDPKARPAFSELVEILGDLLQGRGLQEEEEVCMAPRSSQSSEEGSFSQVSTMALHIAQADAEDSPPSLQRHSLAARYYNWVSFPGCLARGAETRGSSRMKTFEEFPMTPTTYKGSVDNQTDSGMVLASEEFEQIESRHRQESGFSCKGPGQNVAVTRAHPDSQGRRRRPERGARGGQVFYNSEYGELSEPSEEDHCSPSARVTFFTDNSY
# UniProt Q13523, sequence (whole entry, looked up): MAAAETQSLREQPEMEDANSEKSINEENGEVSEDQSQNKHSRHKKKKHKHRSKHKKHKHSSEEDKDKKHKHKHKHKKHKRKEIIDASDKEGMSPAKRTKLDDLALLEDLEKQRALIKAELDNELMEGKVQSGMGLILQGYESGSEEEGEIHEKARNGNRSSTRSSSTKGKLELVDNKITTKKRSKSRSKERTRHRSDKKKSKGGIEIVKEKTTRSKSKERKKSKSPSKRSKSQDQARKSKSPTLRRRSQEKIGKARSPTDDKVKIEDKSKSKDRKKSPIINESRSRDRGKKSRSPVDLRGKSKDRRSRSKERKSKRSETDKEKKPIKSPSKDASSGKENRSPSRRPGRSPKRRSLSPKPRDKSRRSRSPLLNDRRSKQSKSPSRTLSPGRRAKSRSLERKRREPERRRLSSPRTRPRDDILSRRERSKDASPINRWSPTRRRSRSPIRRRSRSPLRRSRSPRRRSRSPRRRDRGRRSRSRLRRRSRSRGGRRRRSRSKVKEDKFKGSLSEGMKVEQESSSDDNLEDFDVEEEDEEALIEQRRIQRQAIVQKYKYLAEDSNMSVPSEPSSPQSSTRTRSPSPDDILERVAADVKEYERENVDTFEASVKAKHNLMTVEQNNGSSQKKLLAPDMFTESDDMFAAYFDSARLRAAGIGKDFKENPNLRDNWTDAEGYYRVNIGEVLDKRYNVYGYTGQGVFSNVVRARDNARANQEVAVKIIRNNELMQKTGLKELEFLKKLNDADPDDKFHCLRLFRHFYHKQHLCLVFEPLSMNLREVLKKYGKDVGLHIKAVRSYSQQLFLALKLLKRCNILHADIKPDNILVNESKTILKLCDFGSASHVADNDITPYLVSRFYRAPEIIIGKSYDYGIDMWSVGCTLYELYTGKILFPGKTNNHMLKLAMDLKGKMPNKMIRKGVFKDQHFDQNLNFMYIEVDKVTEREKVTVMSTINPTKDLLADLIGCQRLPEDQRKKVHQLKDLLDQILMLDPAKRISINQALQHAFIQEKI
# UniProt Q04912, sequence (whole entry, looked up): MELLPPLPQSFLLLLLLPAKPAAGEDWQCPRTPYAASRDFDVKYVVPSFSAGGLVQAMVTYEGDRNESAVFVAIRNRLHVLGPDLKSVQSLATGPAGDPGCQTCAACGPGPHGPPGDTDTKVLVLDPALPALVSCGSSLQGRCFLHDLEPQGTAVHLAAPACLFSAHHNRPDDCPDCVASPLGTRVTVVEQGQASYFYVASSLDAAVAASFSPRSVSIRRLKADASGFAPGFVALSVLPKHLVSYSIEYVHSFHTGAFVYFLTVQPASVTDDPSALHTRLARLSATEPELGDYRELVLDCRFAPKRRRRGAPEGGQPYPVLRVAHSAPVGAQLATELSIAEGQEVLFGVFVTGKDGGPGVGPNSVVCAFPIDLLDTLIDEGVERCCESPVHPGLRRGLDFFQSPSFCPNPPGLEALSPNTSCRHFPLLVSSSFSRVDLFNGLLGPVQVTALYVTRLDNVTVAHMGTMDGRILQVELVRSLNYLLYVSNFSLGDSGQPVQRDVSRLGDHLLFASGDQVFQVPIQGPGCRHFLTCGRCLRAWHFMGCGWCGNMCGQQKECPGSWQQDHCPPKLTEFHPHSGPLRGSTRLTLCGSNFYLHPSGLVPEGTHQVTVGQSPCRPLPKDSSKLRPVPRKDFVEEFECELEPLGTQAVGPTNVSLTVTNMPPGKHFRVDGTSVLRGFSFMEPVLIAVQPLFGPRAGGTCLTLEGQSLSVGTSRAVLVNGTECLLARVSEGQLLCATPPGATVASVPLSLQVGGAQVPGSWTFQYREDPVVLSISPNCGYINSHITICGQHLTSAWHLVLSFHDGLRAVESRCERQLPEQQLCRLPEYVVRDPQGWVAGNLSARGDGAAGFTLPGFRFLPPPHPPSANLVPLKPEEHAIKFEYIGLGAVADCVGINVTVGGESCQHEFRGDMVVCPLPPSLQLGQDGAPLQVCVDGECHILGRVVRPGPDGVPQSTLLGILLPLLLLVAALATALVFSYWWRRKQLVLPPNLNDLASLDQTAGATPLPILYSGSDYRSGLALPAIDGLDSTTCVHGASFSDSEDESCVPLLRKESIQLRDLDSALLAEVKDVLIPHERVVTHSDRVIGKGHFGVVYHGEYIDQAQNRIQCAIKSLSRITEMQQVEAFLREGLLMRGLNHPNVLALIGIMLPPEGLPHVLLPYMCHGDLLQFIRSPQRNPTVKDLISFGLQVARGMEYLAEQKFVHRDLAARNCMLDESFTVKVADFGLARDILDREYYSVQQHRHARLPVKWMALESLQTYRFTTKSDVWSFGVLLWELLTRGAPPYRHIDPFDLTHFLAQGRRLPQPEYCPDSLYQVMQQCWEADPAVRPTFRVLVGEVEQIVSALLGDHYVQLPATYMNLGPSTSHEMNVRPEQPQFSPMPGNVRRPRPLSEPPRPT

# Series 1 — action: inhibitor; concentration: 5 µM
# SMILES: COc1cc(/C=C(\C#N)C(=O)c2ccc(O)c(O)c2)cc(I)c1O
target,test,test system,conditions,how to read,log2 fold change
"PTK6 (Homo sapiens, UniProt Q13882)",kinase activity,,cell-based kinome screen,reference: vehicle,-0.05
"MATK (Homo sapiens, UniProt P42679)",cell-based kinome screen,human cells,,reference: untreated control,-0.227 log2
"RPS6KA2 (Homo sapiens, UniProt Q15349)",kinase activity,,cell-based kinome screen,reference: vehicle,-0.24
"ROR2 (Homo sapiens, UniProt Q01974)",kinase activity,,cell-based kinome screen,reference: vehicle,0.632
"NUAK2 (Homo sapiens, UniProt Q9H093)",cell-based kinome screen,human cells,,reference: untreated control,0.155
human CCDC6-PDGFRB fusion,kinase–CDC37 interaction,,,reference: vehicle,-0.016
BCR-ABL human,kinase-CDC37 interaction,human cells,,reference: vehicle,-0.244
"STK38 (Homo sapiens, UniProt Q15208)",kinase-CDC37 interaction,human cells,,reference: vehicle,0.09
"FLT4 (Homo sapiens, UniProt P35916)",cell-based translocation,human cells,,reference: vehicle,-1.32
"PRKCE (Homo sapiens, UniProt Q02156)",cell-based kinome screen,human cells,,reference: untreated control,0.504
"Dual specificity tyrosine-phosphorylation-regulated kinase 1B, with CDC37 (DYRK1B, Homo sapiens, UniProt Q9Y463)",,human cells,,reference: vehicle,0.517

# Series 2 — concentration: 1 µM
# Compound: O=C(N[C@H]1CCCCC/C=C\C2C[C@@]2(C(=O)O)NC(=O)[C@@H]2C[C@@H](Oc3ccncc3)CN2C1=O)OC1CCCC1 (stereo partly shown)
target,test,remaining binding
"ULK2 (Homo sapiens, UniProt Q8IYT8)","binding, competition with immobilised ligand",100%
"PRKAA1 (Homo sapiens, UniProt Q13131)","cell-free assay, competition with immobilised ligand",100%
"PRKCQ (Homo sapiens, UniProt Q04759)","cell-free assay, competition with immobilised ligand",100%
"ACVRL1 (Homo sapiens, UniProt P37023)","binding, competition with immobilised ligand",84%
"PIK3CA (Homo sapiens, UniProt P42336, C420R)","binding, competition with immobilised ligand",100%
"FGR (Homo sapiens, UniProt P09769)","cell-free assay, competition with immobilised ligand",100%
"CDC42BPG (Homo sapiens, UniProt Q6DT37)",competition binding,90%
"EPHA4 (Homo sapiens, UniProt P54764)","cell-free assay, competition with immobilised ligand",93%
"STK32A (Homo sapiens, UniProt Q8WU08)","binding, competition with immobilised ligand",89%
"Tyrosine-protein kinase ABL1, phosphorylated (ABL1, Homo sapiens, UniProt P00519)","binding, competition with immobilised ligand",97%
"MYLK (Homo sapiens, UniProt Q15746)","binding, competition with immobilised ligand",100%
"TNK1 (Homo sapiens, UniProt Q13470)","binding, competition with immobilised ligand",100%
"Cyclin-dependent kinase 4, with cyclin D1 (CDK4, Homo sapiens, UniProt P11802)","binding, competition with immobilised ligand",100%
"PRPF4B (Homo sapiens, UniProt Q13523)","binding, competition with immobilised ligand",92%
"PRKCI (Homo sapiens, UniProt P41743)","cell-free assay, competition with immobilised ligand",100%
"MAP2K6 (Homo sapiens, UniProt P52564)","binding, competition with immobilised ligand",94%
"WEE2 (Homo sapiens, UniProt P0C1S8)","binding, competition with immobilised ligand",100%
"LCK (Homo sapiens, UniProt P06239)","binding, competition with immobilised ligand",100%
"CDKL5 (Homo sapiens, UniProt O76039)","binding, competition with immobilised ligand",83%
"FLT3 (Homo sapiens, UniProt P36888, N841I)","binding, competition with immobilised ligand",100%
"CDK3 (Homo sapiens, UniProt Q00526)","binding, competition with immobilised ligand",100%

# Series 3 — host: mouse; matrix: microsomes or S9; concentration: 2 µM; time: 0.5 h
SMILES,remaining compound [%]
CC(c1ccc(NC(=O)N2CCC=C(F)C2)cc1)N1CCOCC1 (stereo not shown),91.4
CC(C)Cn1c(=O)c2ccc(C(=O)NC3CCCCC3)cc2n2c(=O)n(Cc3ccccc3)nc12,45.5
COc1cc(Cl)c(NC(=O)c2cc(S(=O)(=O)N3CCOCC3)cn2C)c(OC)c1,54.9
Cn1ncc2c1NC(=O)CC2c1cc(Cl)cc2c1OCOC2 (stereo not shown),40.9
CO[C@@H]1COC[C@@H]1NC(=O)NC1Cc2ccccc2C1,72.1
CCC(C(=O)N(C)C)N(c1ccc(C)c(C)c1)S(C)(=O)=O (stereo not shown),> 100
COc1ccc(OC)c(NC(=O)c2ccc(N(C)S(=O)(=O)c3ccc(OC)c(OC)c3)cc2)c1,21.3
COn1c(Br)c(Br)c(Br)c1C(=O)Nc1ccc(Br)cc1,30.4
CCC(=O)OC(COC)c1ccccc1CS(N)(=O)=O (stereo not shown),14.3
COC(=O)c1cc(O)c(=O)c2c(O)c(O)ccc2c1,> 99
c1ccc(-c2csc(-c3nc(-c4cccs4)cs3)n2)cc1,50.2
CC(=O)Nc1ccc(-n2nnc(C(=O)NCCCN(C)C)c2N)cc1,86.9
O=C(NCC(F)(F)F)c1nnn(-c2ccc(NS(=O)(=O)c3cccnc3)cc2)n1,71.8
CNC(=O)COc1cccc2c1[C@@H]1O[C@H](C)CC[C@H]1[C@](C)(CCCC(C)C)O2,74
COc1cc(OC)c(C2Nc3cc(C)c(C)cc3NC3=C2C(=O)CC(C)(C)C3)cc1OC (stereo not shown),35.6

# Series 4 — observed: enzyme activity; concentration: 5 µM; reference: untreated control
# Compound: O=C(Nc1cnn(-c2csc(C(=O)NC3COC3)c2)c1)Nc1c(F)cccc1Cl
target,remaining activity
"STK17A (Homo sapiens, UniProt Q9UEE5)",89.4%
"CLK2 (Homo sapiens, UniProt P49760)",112%
"MST1R (Homo sapiens, UniProt Q04912)",96.9%
"GSK3B (Homo sapiens, UniProt P49841)",94.8%
"STK11 (Homo sapiens, UniProt Q15831)",94.1%
"RIPK4 (Homo sapiens, UniProt P57078)",92.3%
"GRK6 (Homo sapiens, UniProt P43250)",98%
"PRKCZ (Homo sapiens, UniProt Q05513)",92.8%

# Repeated from above (series 4):
target,remaining activity
"GRK6 (Homo sapiens, UniProt P43250)",98%
"CLK2 (Homo sapiens, UniProt P49760)",112%
"MST1R (Homo sapiens, UniProt Q04912)",96.9%
"STK17A (Homo sapiens, UniProt Q9UEE5)",89.4%
"GSK3B (Homo sapiens, UniProt P49841)",94.8%
